Published values of several laboratories.
Protocols differ between the studies behind these lines. ± marks the error that the study gave.
UniProt Q9Y5T5, sequence (whole entry, looked up): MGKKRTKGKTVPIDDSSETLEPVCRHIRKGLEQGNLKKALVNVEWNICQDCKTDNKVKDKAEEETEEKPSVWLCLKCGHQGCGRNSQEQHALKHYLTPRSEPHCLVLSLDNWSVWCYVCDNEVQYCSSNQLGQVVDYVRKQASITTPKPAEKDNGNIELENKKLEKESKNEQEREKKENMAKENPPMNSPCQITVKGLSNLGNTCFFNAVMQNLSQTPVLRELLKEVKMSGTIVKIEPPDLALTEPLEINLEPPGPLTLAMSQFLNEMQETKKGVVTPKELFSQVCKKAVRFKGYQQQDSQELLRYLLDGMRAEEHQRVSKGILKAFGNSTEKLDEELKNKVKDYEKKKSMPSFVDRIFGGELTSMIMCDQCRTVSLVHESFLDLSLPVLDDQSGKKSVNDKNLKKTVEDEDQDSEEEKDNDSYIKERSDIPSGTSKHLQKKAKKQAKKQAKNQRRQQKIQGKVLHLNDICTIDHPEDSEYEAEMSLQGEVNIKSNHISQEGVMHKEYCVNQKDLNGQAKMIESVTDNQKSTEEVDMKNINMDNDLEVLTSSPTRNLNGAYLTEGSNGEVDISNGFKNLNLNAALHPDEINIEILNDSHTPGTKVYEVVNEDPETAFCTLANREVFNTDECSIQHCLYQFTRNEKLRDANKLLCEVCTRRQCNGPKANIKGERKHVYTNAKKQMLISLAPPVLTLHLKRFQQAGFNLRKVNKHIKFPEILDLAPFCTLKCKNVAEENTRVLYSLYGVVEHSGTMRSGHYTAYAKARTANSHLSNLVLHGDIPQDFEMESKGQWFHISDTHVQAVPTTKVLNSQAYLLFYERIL

CNC(=O)c1cc(Oc2ccc(NC(=O)Nc3cc(C(C)(C)C)nn3-c3ccc4ncccc4c3)c(F)c2)ccn1 — patients with any AE of special interest (measured: worst grade 1; human; oral, dose not given, cycles 1 and 2, Medium Cmax subgroup): 40%
CCCCC[C@H](O)CC[C@@H]1[C@H]2Cc3cccc(OCC(=O)O)c3C[C@H]2C[C@H]1O — geometric mean AUC(0-last) (LC-MS/MS; male Japanese PAH patients, plasma; inhaled, 54 µg): 0.84 ng·h/mL
c1cc2ccc3ccc4ccc5cccc6c(c1)c2c3c4c56 — literature range of log K (polyethylene-water partitioning; PAH compilation): 5.81 to 7.36 log units
CNCCOC12CC3(C)CC(C)(CC(Cn4ncc(-c5ccc(N6CCc7cccc(C(=O)Nc8nc9ccccc9s8)c7C6)nc5C(=O)O)c4C)(C3)C1)C2 — systemic vascular resistance change (anaesthetised male beagle dogs; intravenous bolus, 0.03 mg/kg, 120 min; reference: baseline): 89%
CNC(=O)c1ccc(-c2cnc3ncc(Cc4ccc5ncccc5c4)n3n2)cc1F — Pneumonitis patients (Japanese patients; oral, 400 mg twice daily, grade 3/4): 1%
O=C(O)C1=CO[C@@H](O[C@@H]2O[C@H](CO)[C@@H](O)[C@H](O)[C@H]2O)[C@@H]2C(CO)=CC[C@H]12 — accuracy (three freeze-thaw cycles; rat plasma; 200 ng/mL, -70 °C freeze): 92.8%
Cc1cc(C)c(CNC(=O)c2cc(Cl)c3c(c2C)O[C@@](C)([C@H]2CC[C@H](N(C)C)CC2)O3)c(=O)[nH]1 — radioactivity recovery (human male, urine and feces; oral, 200 mg, 96 h; reference: dose): 86.7%
O=C(Nc1ccc(OC(F)(F)Cl)cc1)c1cnc(N2CC[C@@H](O)C2)c(-c2ccn[nH]2)c1 — grade ≥3 event rate (per laboratory record, measured: amylase increase; human patients; oral, dose not given): 0%
CN(C(=O)n1cnc(-c2cccnc2)c1)C1CCCCC1 — concentration (Wistar rat, pons; oral, 10 mg/kg/day of BIA 10-2474, 4 h, repeated 5 days): 33.6 ± 7.5 ng/g
C[C@@H]1CCO[C@H]2Cn3cc(C(=O)NCc4ccc(F)cc4F)c(=O)c(O)c3C(=O)N12 — AUC(0-24) (population PK, post-hoc; children aged 0.17 to 2 years, 6 to <10 kg, plasma; oral, 10 mg dispersible tablet, steady state, geometric mean): 52100 ng·h/mL
CC(C)C[C@H](N)C(=O)N[C@@H](Cc1c[nH]c2ccccc12)C(=O)N[C@@H](Cc1c[nH]c2ccccc12)C(=O)N[C@@H](CCCNC(=N)N)C(=O)N[C@@H](Cc1c[nH]c2ccccc12)C(=O)N[C@@H](Cc1c[nH]c2ccccc12)C(=O)N[C@@H](CCCNC(=N)N)C(=O)N[C@@H](Cc1c[nH]c2ccccc12)C(=O)N[C@@H](CCCNC(=N)N)C(=O)O — helix content (circular dichroism; 50% TFE): 2.16%
C[C@H]1Oc2cc(cnc2N)-c2c(nn(C)c2C#N)CN(C)C(=O)c2ccc(F)cc21 — free plasma concentration (Balb/c nude mouse, female, plasma; 5 mg/kg twice daily for 5 days, 1 h): 0.935 µM
Cc1cc(NC2CCN(C(=O)OC3CCN(C(=O)/C=C/CN(C)C)C3)CC2)n2ncc(C(C)C)c2n1 (stereo not shown) — patients with TEAE (CTCAE v4.0, measured: Ascites; patients with advanced solid tumours; oral, dose not given, all schedules, grade 3 or higher): 2%
C=CC(=O)NC1CCN(c2ncc3ncnc(Nc4ccc(Oc5ccc6c(c5)ncn6C)c(C)c4)c3n2)CC1 — adverse events incidence (measured: gastrointestinal disorders (SOC); human male; oral, dose not given, AEs, treatment-related, on drug, CTCAE): 0%
Cc1ccc(C(=O)N(CCCN)C(c2nc3snc(C)c3c(=O)n2Cc2ccccc2)C(C)C)cc1 (stereo not shown) — patients with CTCAE grade ≥3 events (human patients; intravenous, 10 mg/day): 67%
O=C(O)CCC(=O)O.[2H]C([2H])([2H])Oc1cc(C)c2[nH]ccc2c1CN1CC[C@@H](C2CC2)C[C@H]1c1ccc(C(=O)O)cc1 — subjects with elevated LDL TEAE (multiple ascending dose; healthy Chinese subjects; 200 mg once daily): 12.5%
c1ccc2c(c1)ccc1ccccc12 — literature range of log K (PDMS-water partitioning; PAH compilation): 3.7 to 4.51 log units
COc1ccc2[nH]c([S@+]([O-])Cc3ncc(C)c(OC)c3C)nc2c1 — AUC ratio (human, dried blood spots; 10 mg omeprazole, median, added: fluvoxamine; reference: with fluvoxamine over alone): 4.3
Cl.[2H]C([2H])([2H])CC(=O)c1cnc(NC(=O)C2CC2)cc1Nc1cccc(-c2ncn(C([2H])([2H])[2H])n2)c1OC — CL/F (geometric mean; human; 5 mg single dose, fasted, liquid): 14.9 L/h
COc1cnc2cccc(N3CCc4c(cc(Cn5ccnc5C)cc4-c4cn(C)nc4C(F)(F)F)C3=O)c2c1 — EC50 (GSU; cell growth; 120 h): 0.0429 µM
O=C(O)CCN1C(=O)CSC1=S — permeation rate (Bama miniature pig, excised skin; 10 mM, 8 h, 30% ethanol in saline donor): 0.92 ± 0.054 µmol/cm²/h
O=C(O)Cc1nc2ccccc2o1 — Kd (Ubiquitin carboxyl-terminal hydrolase 16, ZnF-UBD domain (USP16, Homo sapiens, UniProt Q9Y5T5)): > 1000 µM
CCn1cc(C(=O)N2CCOCC2)c(=O)c2cc(NC3Cc4ccccc4C3)cnc21 — AUC(0-inf) (human, fasted; oral tablet, 300 mg single dose, arithmetic mean): 11200 ng·h/mL
CC(C)[C@H](C(=O)Nc1ccc(C(=O)NO)cc1)c1ccccc1 — accuracy (whole blood; 100 ng/mL, 0 h, 4 °C, stability on ice): 107%
C=CC(=O)NC1CCN(c2ncc3ncnc(Nc4ccc(Oc5ccc6c(c5)ncn6C)c(C)c4)c3n2)CC1 — participants with fatigue (human, male; oral, 240 mg, treatment-related adverse event): 6.3%
CC(C)n1c(C2CCNCC2)nc2c([N+](=O)[O-])c(Br)c(Br)cc21 — renal clearance (human; oral, 125 mg single dose, median): 12.3 mL/min
C[C@H]1CN(C(=O)CC#N)[C@]12CCN(c1ncnc3[nH]ccc13)C2 — participants with dry skin (human; oral, 12 mg single dose): 0%
C[Si](C)(C)O[Si](C)(C)C — entropy of phase change (air/water; concentration not given): 0.225 kJ/(mol·K)
[18F]c1ccc(-c2ccc3c(c2)[nH]c2ccncc23)cn1 — SUV (microPET/CT imaging; APP/PS1 mouse, AD model, heart; intravenous, 20 min): 0.948 ± 0.45
C[C@H](N[C@@H](CCc1ccccc1)C(=O)O)C(=O)N1[C@H](C(=O)O)C[C@H]2CCCC[C@@H]21 — autosampler stability (processed human plasma; 30 pg/mL, 48 h, 4 °C; reference: nominal): 96.1 ± 9%
FC(F)(F)c1ccc(CNc2ccc(Cc3c[nH]c4ncc(Cl)cc34)cn2)cn1 — cognitive disorder incidence (patients with advanced solid tumours; oral, 1000 mg/day, non-TGCT cohort, all grades): 0%
OC[C@H]1O[C@@H](c2ccc(F)c(Cc3cc4ccccc4s3)c2)[C@H](O)[C@@H](O)[C@@H]1O — hypoglycaemia adverse events (Japanese type 1 diabetes patients; oral, 100 mg/day; reference: patients): 6%
C[C@@H](Oc1ccc(S(C)(=O)=O)cc1C(=O)N1C[C@@H]2C[C@]2(c2cc(C(F)(F)F)on2)C1)C(F)(F)F — Vz/F at steady state (young humans, plasma; oral, 25 mg once daily, multiple dose, geometric mean): 317 L
Cc1cc(-c2nccc3c2ccn3CC(=O)Nc2ccc(-c3cnccn3)cn2)ccn1 — subjects with cardiac disorders (human; 20 mg once daily, multiple ascending dose): 0%
CNC(=O)c1cc(Oc2ccc(NC(=O)Nc3ccc(Cl)c(C(F)(F)F)c3)c(F)c2)cc[n+]1[O-] — accuracy (short-term stability; mouse plasma; 75 ng/mL, 8 h, room temperature): 103%
N[C@@H](Cc1c[nH]cn1)C(=O)O — log2 fold change (binding, MIDAS equilibrium dialysis LC-MS; A2AR-BRIL thermostabilized; concentration not given; reference: no-protein control): -0.0826
Cc1ccc(Sc2ccccc2N2CCNCC2)c(C)c1 — adverse event incidence (healthy adult men; oral, 5 mg single dose, 10 days): 0%
COc1ccc2c(c1)CN(C(=O)CCN1CCC(Cc3ccccc3)CC1)CC[S@@+]2[O-] — diastolic blood pressure (telemetry; conscious dog; intravenous, 2 mg/kg, 1 h): 76 ± 7 mmHg
Cc1cccc(CNC(=O)c2cn(CCNC(=O)c3ccccc3Sc3c([N+](=O)[O-])ncn3C)c3cc4c(cc3c2=O)OCO4)n1 — remaining compound (LC-MS/MS; CD-1 mouse, whole blood; 1 µM, 1.5 h): 83.9%
C[C@@H](N)C1CCN(S(=O)(=O)c2cccc3cnccc23)CC1 — participants, with TEAEs, treatment-related (healthy volunteers; 25 mg, fasted): 16.7%
COc1ccc2c(=O)n(C)c(-c3ccccc3)nc2c1 — tissue concentration (Sprague-Dawley rat, male, testis; oral, 30 mg/kg, 2 h): 2.93 ng/mL
CC[C@H](C)[C@H](NC(=O)CN)C(=O)N[C@@H](C)C(=O)N[C@@H](CC(=O)O)C(=O)N[C@@H](C)C(=O)N[C@H](C(=O)N[C@@H](CCCCN)C(=O)N[C@@H](C)C(=O)N[C@H](C(=O)N[C@@H](C)C(=O)N[C@@H](CCCCN)C(=O)N[C@@H](C)C(=O)N[C@@H](CC(C)C)C(=O)NCC(N)=O)[C@@H](C)CC)[C@@H](C)CC — helix content (circular dichroism; 10 mM SDS; 100 µM): 2%
C=CC(=O)Nc1cc(Nc2nccc(-c3cn(C4CC4)c4ccccc34)n2)c(OC)cc1N(C)CCN(C)C — TG level (BALB/c nude mouse, LU0387 xenograft, serum; oral, 40 mg/kg): 1.02 ± 0.116 mmol/L
Cc1cc([C@H]2C[C@H]3[C@@H](C)SC(N)=N[C@@]3(c3ccc(F)cc3F)CO2)on1 — brain concentration (male 129/SVE mouse, brain; subcutaneous, 50 mg/kg, 1 h): 20.4 µM
O=C(O)c1ccoc1 — log2 fold change (binding, MIDAS equilibrium dialysis LC-MS; A2AR-BRIL thermostabilized; concentration not given; reference: no-protein control): -0.349
Cn1cc(-c2ccc(-c3cncc(Cl)c3N3CCC4(CCNC4=O)CC3)cc2)cn1 — log2 fold change (COLO 205; gene expression, microarray, measured: VLDLR mRNA; concentration not given, 6 h; reference: untreated cells): 1.37
O=C(Nc1nc2cccc(-c3ccc(CN4CCS(=O)(=O)CC4)cc3)n2n1)C1CC1 — treatment-emergent adverse events (measured: food allergy; human rheumatoid arthritis patients; oral, 30 mg once daily, 4 weeks, regardless of relatedness): 5.9%
Cc1c(-c2ccc(N3CCc4cccc(C(=O)Nc5nc6ccccc6s5)c4C3)nc2C(=O)O)cnn1CC12CC3(C)CC(C)(C1)CC(OCCNCC[C@H](O)CO)(C3)C2 — heart rate change (beagle dog, male, anaesthetised; intravenous infusion, 0.3 mg/kg/min, 30 (unit not given); reference: vehicle): -5%
CCc1cc(C(=O)NC)c2nccc(N3CCc4c(cc(Cn5ccnc5)cc4-c4cn(C)nc4C(F)(F)F)C3=O)c2c1 — body weight (Sprague Dawley rat; oral, 100 mg/kg once daily, day 3, 7-day toxicology study): 234 ± 3.7 g
